{"data": "Measurements from different studies", "note": "A part holds a random share of what one study measured. Positions count from the first letter of the parent shown."}
{"data": "Set 1", "target": "RNA binding protein fox-1 homolog 2, RRM domain, GST-SBP tag (RBFOX2, Homo sapiens, UniProt O43251-10, residues 100-194)", "technique": "RNA Bind-n-Seq", "form": "RNA", "medium": "in vitro", "concentration": "365 nM", "setting": "natural RNA segment, single round, ends assumed", "relative to": "no-protein control", "reading": "higher = stronger binding", "Construct (chain)": "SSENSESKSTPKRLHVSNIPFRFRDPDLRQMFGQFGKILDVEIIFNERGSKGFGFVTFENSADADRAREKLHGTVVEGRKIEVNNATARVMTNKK"}
{"Sequence": "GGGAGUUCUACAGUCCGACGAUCUGUGCAGGAAAUGACAAAUUUGUAUGUCAGAUUAUACAAGGAUGUAUUCUUAAACCGCAUGACUAUUCAGAUGGCUACUGAGUUAUCAGUGGCCAUUUAUUAGCAUCAUAUGGAAUUCUCGGGUGCCAA", "RBNS enrichment (R)": 0.478}
{"Sequence": "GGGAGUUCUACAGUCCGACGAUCGGCCCCAUUGGAGAGCCAUCCAAACUGAGGAAAAUUAGGGGACUCCAAAAGAGUUUGAUUCUGGCACAUUCUUGCCGCUGCCCCCAAGUUAACAACAGUAGGUAAUUUGCUGGAAUUCUCGGGUGCCAA", "RBNS enrichment (R)": 0.517}
{"Sequence": "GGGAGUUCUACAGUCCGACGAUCUUUGAGUUUUGCUCUUGUCGCCCAGGCUGGAGUGCAAUGGCGUGAUCUCAGCUCACUGGCAACAUCUGCCUCCCGGGUUCAAAUGAUUCUCCUGCCUCAGUCUCCUGAGUUGGAAUUCUCGGGUGCCAA", "RBNS enrichment (R)": 0.251}
{"Sequence": "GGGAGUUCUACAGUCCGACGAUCCACUGCCUUUCCCCCUCCACCGAGGGCUAUUGGCUGACAAAGCCCCUUCCUGGCCUCACAACCACCACAGUGAUUUCCUGUAGUGUCUUACACUUCCAUGUCACCACAGCUGGAAUUCUCGGGUGCCAA", "RBNS enrichment (R)": 0.251}
{"Sequence": "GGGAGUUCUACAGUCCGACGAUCUUGAAGCUGCCCAGGAUUUUAACAGUCCAGUUCUACUGUAGCAACAUAGCAAAAAGAAAGUGGCUACAGGAUUGUGGCUAACAAGAAUAAAUACAUGGGAAAAGUGCUCCUGGAAUUCUCGGGUGCCAA", "RBNS enrichment (R)": 0.383}
{"Sequence": "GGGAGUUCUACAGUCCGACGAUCAGACUAUUUUCCCCCAGUAGCGCUUUUUUCUGGAUUUGCAUUCAGGUGUUAUUCUUAAUGUUUCUGUCAAAGCUUCUUAAAAAUCUUCACUUGGUUUCAGCCAUAGUUCAUGGAAUUCUCGGGUGCCAA", "RBNS enrichment (R)": 0.508}
{"Sequence": "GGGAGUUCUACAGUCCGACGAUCACACGGGCAACAAAGUAGGGAUUUGAUUCCCCUUUGAGGAGGUAGUGCUGUUUGCUUUUAGGUCUGGGUGCUCAGGGGCCCUCACUGAUACAAGAGCCCAUCUCUUCUCCUGGAAUUCUCGGGUGCCAA", "RBNS enrichment (R)": 0.234}
{"Sequence": "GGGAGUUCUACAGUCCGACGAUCACCGGCUCACUGUCUGCAGCACCUUCUCUUUCUUUCUCAUGCAUUUCAAAGCCAGCUAUCUCCUGCACUAGCUGUCUGUGGCCUGUAGAACAAGCUUUUUUCACCAAGCUUGGAAUUCUCGGGUGCCAA", "RBNS enrichment (R)": 0.975}
{"data": "Set 2", "target": "ABI1, truncated, D143A, DHFR fusion (Arabidopsis thaliana)", "technique": "DHFR PCA, deep sequencing", "medium": "yeast", "setting": "methotrexate growth selection, single substitutions", "added": "(+)-ABA 2500 µM", "relative to": "wild-type fitted maximum", "reading": "higher = stronger binding", "starting sequence": "PYL1, truncated, DHFR fusion (Arabidopsis thaliana); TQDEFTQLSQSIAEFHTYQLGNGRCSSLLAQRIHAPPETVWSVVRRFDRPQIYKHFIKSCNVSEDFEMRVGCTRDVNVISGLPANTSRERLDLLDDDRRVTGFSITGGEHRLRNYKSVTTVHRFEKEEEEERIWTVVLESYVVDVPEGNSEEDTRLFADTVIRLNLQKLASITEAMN; partner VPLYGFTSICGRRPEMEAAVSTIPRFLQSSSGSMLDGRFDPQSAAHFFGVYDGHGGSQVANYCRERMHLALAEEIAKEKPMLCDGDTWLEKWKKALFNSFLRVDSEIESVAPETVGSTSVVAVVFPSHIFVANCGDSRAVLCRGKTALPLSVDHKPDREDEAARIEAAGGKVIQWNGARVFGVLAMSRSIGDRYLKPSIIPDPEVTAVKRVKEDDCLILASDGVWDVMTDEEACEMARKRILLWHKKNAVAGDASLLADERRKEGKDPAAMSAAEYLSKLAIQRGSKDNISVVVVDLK"}
{"Change": "P83I", "relative binding score [%]": 24.7}
{"Change": "N77Y", "relative binding score [%]": 99.6}
{"Change": "K116V", "relative binding score [%]": 89.1}
{"Change": "V100P", "relative binding score [%]": -19.2}
{"Change": "N114I", "relative binding score [%]": -6.47}
{"Change": "N114Q", "relative binding score [%]": 90.4}
{"Change": "N149E", "relative binding score [%]": 70.9}
{"Change": "I57T", "relative binding score [%]": 84.1}
{"Change": "F66I", "relative binding score [%]": 94.3}
{"Change": "L138A", "relative binding score [%]": 74.2}
{"Change": "E131H", "relative binding score [%]": 94.9}
{"Change": "L91H", "relative binding score [%]": 37.4}
{"Change": "T120M", "relative binding score [%]": 51.9}
{"Change": "E64T", "relative binding score [%]": 91.2}
{"Change": "R74V", "relative binding score [%]": -1.25}
{"Change": "T120H", "relative binding score [%]": 56.7}
{"Change": "E131L", "relative binding score [%]": 102}
{"Change": "R49A", "relative binding score [%]": 92.9}
{"Change": "R24N", "relative binding score [%]": 99.1}
{"Change": "S63K", "relative binding score [%]": 99.4}
{"Change": "L112H", "relative binding score [%]": 5.93}
{"Change": "M176S", "relative binding score [%]": 97.8}
{"data": "Set 3", "target": "CCNB1, cyclin fold, Cln2 fusion (human)", "technique": "yeast growth competition, sequencing", "medium": "yeast", "setting": "weak parent motif", "relative to": "not given", "reading": "higher = stronger binding", "starting sequence": "AKAP12 docking peptide (human); GSPLKKLFTSTGL"}
{"Change": "K5R F8L", "normalised enrichment score": 0.163}
{"Change": "F8A", "normalised enrichment score": -0.422}
{"Change": "T9A", "normalised enrichment score": 0.525}
{"Change": "P3A", "normalised enrichment score": 1.01}
{"Change": "L7A", "normalised enrichment score": -0.451}
{"Change": "K5R", "normalised enrichment score": 0.0541}
{"Change": "T11A", "normalised enrichment score": -0.973}
{"Change": "L13A", "normalised enrichment score": -0.0622}
{"Change": "K5A", "normalised enrichment score": -1.02}
{"Change": "K5A L7A", "normalised enrichment score": -0.577}
{"data": "Set 4", "target": "RING finger protein unkempt homolog, zinc fingers 1-6, GST-SBP tag (UNK, Homo sapiens, UniProt Q9C0B0, residues 30-357)", "technique": "RNA Bind-n-Seq", "form": "RNA", "medium": "in vitro", "concentration": "not given", "setting": "RNA with constant flanks, ends assumed", "relative to": "input RNA pool", "reading": "higher = stronger binding", "sequence of UniProt Q9C0B0 (30-357, looked up)": "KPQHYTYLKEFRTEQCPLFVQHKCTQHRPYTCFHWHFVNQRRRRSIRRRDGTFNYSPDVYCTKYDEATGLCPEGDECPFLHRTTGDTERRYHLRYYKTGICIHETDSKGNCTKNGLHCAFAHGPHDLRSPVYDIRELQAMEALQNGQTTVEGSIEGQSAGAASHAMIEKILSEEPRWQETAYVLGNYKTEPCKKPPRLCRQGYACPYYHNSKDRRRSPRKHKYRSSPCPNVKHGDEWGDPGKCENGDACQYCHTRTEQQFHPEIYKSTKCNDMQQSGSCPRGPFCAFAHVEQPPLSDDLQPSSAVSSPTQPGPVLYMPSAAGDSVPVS"}
{"Sequence": "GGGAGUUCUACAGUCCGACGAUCCAAGUAUUUUAAUUUAAGUUCAGUGAACUUUUUUGUAGCUGGGUUAAAUCUUUUUAUUUUCCGUAUGGCCUUAUGGCAAAGAACACUGUAUUAUUUUAAUAAUCACACGAUUGUGACGGACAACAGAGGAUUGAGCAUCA", "bound/input enrichment [ratio]": 0.591}
{"Sequence": "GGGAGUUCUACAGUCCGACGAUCUUGCUGUCCAAAAUUGAUGGCGUGGAGCAGCUAAACAACAUCCUAGUCAUUGGAAUGACCAACCGACCAGAUCUGAUAGAUGAGGCUCUUCUUAGACCUGGAAGACUGGAAGUUAAAAUGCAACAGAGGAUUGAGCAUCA", "bound/input enrichment [ratio]": 0.169}
{"Sequence": "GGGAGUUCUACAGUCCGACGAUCGACAGGGUAGGUGAUAUCCAUAUUUUGGAAGUCACAAAUAACCUAGAGCAUAAGUCCACUUUCCGUAUUUCGAAUUUUCUUAACAAGAGCAGAGGAAAUAACUUUACUGCAAAUCAGAACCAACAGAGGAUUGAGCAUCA", "bound/input enrichment [ratio]": 0.173}
{"Sequence": "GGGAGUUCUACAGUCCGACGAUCAUACCUCCAACAGGGUCACUGUCAAGAACCUCGAUUAUAGCAGGAAGCUGAAAAACGUGCCCGUGACCAUUUACUGGCUGGGGAAAGCUGCAAACAGCUGUGCAUCCUACGGUGGAACCACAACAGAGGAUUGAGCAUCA", "bound/input enrichment [ratio]": 0.146}
{"Sequence": "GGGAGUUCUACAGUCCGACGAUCCAAACUUAUCAAGAAAUAGUUACCAGUCAUUCCGCAGCAUCCUGAGAACAGUUAAAAACACAUUUCACCGUAAUGCCCUUCCAUUUUGGUAAUACUAAGCUGAACAUUUAAAAAUCUUGGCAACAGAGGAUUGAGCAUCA", "bound/input enrichment [ratio]": 0.236}
{"Sequence": "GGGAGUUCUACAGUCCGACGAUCGCUGAAGAUUUAAUUUGUGAUACCUUUGUAUGUAUGAGACACAUUCCAAAGAGCUCUAACUAUGACCGGUCCUGAUUACUAAAGAAGCUUCUUUACUGGCCUCAAUUUCUAGCUUUCAUGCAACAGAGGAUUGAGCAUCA", "bound/input enrichment [ratio]": 0.132}
{"Sequence": "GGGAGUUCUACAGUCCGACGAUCCUAAUCGCCUCACAAAAAUUCACAGACAAACGCAUUGGCUAUUUAGGAGCAAUGCUAUUAUCCGAUGAAAGACAAGAUGUGCAUCUUCUCAUGACCAACUGUAUCAAGAAUGAUCUUAAUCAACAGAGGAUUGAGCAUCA", "bound/input enrichment [ratio]": 0.461}
{"Sequence": "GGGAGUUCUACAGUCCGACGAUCAGGCGCAAAGCAGCAAAUGUCACGUUACUCACCUCACUGGUAGAAGGGGAAGCUGUUCACUCCGCUCGGGAUUUCGGGUAUAUUUGUGAAACAGAGUUUCCUGCUAAAGCCGUGUCCGAGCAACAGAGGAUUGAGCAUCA", "bound/input enrichment [ratio]": 0.135}
{"note": "Excerpt of the above (set 3):"}
{"Change": "P3A", "normalised enrichment score": 1.01}
{"Change": "L7A", "normalised enrichment score": -0.451}
{"Change": "K5R", "normalised enrichment score": 0.0541}
{"Change": "T11A", "normalised enrichment score": -0.973}
{"Change": "L13A", "normalised enrichment score": -0.0622}
